Measurements from different studies.
Protocols differ between the studies behind these lines.
Target: Serine/threonine-protein kinase DCLK1 (DCLK1, Homo sapiens, UniProt O15075)
One construct used (O15075 1-740): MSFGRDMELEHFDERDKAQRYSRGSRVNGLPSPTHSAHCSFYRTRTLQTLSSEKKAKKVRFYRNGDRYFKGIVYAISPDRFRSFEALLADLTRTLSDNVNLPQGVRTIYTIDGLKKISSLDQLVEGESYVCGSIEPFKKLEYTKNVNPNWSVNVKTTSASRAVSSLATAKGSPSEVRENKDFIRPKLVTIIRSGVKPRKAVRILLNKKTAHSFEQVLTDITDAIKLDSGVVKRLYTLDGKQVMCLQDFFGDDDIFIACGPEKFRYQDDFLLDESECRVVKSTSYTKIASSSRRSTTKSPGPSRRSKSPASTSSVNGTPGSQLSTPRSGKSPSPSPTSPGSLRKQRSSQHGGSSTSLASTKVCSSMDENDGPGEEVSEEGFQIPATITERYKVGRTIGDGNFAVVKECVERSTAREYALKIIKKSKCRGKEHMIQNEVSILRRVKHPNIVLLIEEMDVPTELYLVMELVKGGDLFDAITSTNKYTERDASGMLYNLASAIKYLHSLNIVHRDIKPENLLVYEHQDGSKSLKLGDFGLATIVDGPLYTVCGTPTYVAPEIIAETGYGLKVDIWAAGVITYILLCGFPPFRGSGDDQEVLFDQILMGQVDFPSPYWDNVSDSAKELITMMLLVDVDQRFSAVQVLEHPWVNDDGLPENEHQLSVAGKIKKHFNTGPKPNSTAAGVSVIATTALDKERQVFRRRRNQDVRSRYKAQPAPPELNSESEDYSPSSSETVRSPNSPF

| assay | setting | how to read | quantity | result | Structure (SMILES) |
| --- | --- | --- | --- | --- | --- |
| KINOMEscan | 1 µM | relative to: DMSO control | remaining binding | 100% | C=CC(=O)N1CCC(COCC(=O)N2CCN(c3nc(-c4cnc(N)nc4C(F)F)nc(N4CCOC[C@@H]4C)n3)CC2)CC1 |
| enzyme activity | 10 µM | relative to: control | remaining activity | 0.4% | COc1cc(N2CCN(C)CC2)ccc1Nc1nc(N)n(C(=O)NCc2c(Cl)cccc2Cl)n1 |
| isothermal titration calorimetry | 200 µM, with: protein 20 µM | – | TΔS | 0.23 kcal/mol | COc1cc(N2CCN(C)CC2)ccc1Nc1ncc2c(n1)N(C)c1ccccc1C(=O)N2CC(F)(F)F |
| KINOMEscan | 1 µM | – | remaining binding | 59% | C=CC(=O)N1CCC(C(=O)NCC(=O)N2CCN(c3nc(-c4cnc(N)nc4C(F)F)nc(N4CCOCC4)n3)CC2)CC1 |
| enzyme activity | 10 µM | – | remaining activity | 100% | O=C(NC1CCC1)c1ccc2nc(-c3cccc(NS(=O)(=O)NCCN4CCCCC4)c3)cn2c1 |
| KINOMEscan | 0.1 µM | relative to: DMSO control | remaining binding | 82% | C[C@@H](c1ccc(-n2cnc3c(N)ncnc32)cc1)N1CCc2nn(C)c(Cc3ccccc3)c2C1=O |
| enzyme activity | 10 µM | relative to: control | remaining activity | 1.8% | COc1cc(N2CCN(C)CC2)ccc1Nc1nc(N)n(C(=O)NCc2ccccc2S(=O)(=O)C(C)C)n1 |
| – | concentration not given, gene name DCAMKL1 | – | percent of control | 100% | C1=C/COCc2cc(ccc2OCCN2CCCC2)Nc2nccc(n2)-c2cccc(c2)COC/1 |

For quick reference, copied from above:
| assay | setting | how to read | quantity | result | Structure (SMILES) |
| --- | --- | --- | --- | --- | --- |
| enzyme activity | 10 µM | relative to: control | remaining activity | 1.8% | COc1cc(N2CCN(C)CC2)ccc1Nc1nc(N)n(C(=O)NCc2ccccc2S(=O)(=O)C(C)C)n1 |
